Experimental data collected from several papers.
Protocols differ between the studies behind these lines. ± marks the error that the study gave.
PAK3: Serine/threonine-protein kinase PAK 3 (PAK3, Homo sapiens, UniProt O75914)
Chain of UniProt O75914 (whole entry, looked up): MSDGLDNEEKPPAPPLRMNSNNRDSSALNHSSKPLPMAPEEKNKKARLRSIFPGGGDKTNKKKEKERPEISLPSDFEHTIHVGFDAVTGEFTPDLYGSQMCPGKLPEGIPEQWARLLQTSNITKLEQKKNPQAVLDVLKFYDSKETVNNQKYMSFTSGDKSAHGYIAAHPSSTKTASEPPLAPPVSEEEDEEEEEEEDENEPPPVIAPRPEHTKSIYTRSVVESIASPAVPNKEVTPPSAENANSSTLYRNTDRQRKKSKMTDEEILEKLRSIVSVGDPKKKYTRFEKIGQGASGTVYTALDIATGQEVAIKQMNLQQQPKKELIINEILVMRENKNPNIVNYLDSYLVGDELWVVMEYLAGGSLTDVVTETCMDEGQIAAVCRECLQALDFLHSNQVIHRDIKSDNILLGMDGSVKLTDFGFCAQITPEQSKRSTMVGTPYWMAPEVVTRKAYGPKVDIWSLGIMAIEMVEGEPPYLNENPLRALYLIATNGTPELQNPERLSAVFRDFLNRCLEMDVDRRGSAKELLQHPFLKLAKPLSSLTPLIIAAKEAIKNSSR
GRK6: G protein-coupled receptor kinase 6 (GRK6, Homo sapiens, UniProt P43250)
Chain of UniProt P43250 (whole entry, looked up): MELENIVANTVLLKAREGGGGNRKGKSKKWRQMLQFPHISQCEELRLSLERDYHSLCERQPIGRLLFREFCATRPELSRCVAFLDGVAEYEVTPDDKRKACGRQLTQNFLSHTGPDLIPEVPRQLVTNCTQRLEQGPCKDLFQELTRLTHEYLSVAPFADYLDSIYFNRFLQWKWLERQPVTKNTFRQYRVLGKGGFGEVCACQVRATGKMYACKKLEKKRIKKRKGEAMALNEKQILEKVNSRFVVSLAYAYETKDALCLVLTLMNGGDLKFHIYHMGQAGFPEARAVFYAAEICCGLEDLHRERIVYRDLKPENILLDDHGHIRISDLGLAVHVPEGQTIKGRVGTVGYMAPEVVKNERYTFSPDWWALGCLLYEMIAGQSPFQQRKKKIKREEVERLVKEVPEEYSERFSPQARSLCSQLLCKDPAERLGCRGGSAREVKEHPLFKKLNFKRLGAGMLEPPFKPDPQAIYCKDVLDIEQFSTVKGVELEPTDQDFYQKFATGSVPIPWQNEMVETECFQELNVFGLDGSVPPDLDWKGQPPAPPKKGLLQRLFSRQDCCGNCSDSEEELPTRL
Chain of UniProt P10721 (whole entry, unmodified, looked up): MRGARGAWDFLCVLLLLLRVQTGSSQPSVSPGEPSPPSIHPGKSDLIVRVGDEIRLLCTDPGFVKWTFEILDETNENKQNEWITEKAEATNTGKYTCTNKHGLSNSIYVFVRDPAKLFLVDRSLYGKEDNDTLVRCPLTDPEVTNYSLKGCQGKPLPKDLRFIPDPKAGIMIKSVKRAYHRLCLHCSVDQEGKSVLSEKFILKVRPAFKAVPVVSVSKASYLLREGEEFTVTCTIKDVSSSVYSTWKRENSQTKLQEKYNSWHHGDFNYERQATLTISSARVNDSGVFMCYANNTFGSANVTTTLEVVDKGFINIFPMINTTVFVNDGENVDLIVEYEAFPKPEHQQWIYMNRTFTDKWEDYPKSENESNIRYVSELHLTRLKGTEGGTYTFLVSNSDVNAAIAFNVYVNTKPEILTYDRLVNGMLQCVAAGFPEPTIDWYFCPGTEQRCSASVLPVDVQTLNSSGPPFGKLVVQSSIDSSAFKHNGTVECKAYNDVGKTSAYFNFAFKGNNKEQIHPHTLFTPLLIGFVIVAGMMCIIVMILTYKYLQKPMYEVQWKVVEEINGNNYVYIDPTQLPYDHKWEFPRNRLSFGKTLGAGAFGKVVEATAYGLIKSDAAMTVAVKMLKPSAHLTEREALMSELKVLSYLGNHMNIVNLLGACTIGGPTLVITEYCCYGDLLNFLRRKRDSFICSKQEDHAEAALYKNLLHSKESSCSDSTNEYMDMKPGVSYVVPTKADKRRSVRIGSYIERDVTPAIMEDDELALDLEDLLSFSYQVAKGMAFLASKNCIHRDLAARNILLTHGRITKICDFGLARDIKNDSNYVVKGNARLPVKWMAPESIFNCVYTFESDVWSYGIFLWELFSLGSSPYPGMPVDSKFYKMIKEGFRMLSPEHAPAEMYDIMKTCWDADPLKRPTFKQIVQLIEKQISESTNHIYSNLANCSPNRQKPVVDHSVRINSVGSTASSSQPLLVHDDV
Chain of UniProt Q9UBE8 (whole entry, looked up): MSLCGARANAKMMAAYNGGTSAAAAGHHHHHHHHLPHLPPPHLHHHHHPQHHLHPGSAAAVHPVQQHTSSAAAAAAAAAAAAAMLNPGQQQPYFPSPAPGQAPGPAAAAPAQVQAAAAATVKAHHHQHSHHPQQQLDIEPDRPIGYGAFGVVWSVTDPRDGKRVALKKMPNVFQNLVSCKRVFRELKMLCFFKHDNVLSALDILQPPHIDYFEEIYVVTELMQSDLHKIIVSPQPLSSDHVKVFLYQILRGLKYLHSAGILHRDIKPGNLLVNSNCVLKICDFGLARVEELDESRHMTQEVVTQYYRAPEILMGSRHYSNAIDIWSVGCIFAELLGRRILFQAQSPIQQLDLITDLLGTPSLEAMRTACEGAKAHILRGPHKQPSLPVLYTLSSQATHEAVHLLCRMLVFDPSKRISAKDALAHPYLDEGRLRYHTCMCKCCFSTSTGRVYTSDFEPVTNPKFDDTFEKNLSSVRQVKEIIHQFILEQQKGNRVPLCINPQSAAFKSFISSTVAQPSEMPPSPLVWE
Chain of UniProt P17948 (whole entry, looked up): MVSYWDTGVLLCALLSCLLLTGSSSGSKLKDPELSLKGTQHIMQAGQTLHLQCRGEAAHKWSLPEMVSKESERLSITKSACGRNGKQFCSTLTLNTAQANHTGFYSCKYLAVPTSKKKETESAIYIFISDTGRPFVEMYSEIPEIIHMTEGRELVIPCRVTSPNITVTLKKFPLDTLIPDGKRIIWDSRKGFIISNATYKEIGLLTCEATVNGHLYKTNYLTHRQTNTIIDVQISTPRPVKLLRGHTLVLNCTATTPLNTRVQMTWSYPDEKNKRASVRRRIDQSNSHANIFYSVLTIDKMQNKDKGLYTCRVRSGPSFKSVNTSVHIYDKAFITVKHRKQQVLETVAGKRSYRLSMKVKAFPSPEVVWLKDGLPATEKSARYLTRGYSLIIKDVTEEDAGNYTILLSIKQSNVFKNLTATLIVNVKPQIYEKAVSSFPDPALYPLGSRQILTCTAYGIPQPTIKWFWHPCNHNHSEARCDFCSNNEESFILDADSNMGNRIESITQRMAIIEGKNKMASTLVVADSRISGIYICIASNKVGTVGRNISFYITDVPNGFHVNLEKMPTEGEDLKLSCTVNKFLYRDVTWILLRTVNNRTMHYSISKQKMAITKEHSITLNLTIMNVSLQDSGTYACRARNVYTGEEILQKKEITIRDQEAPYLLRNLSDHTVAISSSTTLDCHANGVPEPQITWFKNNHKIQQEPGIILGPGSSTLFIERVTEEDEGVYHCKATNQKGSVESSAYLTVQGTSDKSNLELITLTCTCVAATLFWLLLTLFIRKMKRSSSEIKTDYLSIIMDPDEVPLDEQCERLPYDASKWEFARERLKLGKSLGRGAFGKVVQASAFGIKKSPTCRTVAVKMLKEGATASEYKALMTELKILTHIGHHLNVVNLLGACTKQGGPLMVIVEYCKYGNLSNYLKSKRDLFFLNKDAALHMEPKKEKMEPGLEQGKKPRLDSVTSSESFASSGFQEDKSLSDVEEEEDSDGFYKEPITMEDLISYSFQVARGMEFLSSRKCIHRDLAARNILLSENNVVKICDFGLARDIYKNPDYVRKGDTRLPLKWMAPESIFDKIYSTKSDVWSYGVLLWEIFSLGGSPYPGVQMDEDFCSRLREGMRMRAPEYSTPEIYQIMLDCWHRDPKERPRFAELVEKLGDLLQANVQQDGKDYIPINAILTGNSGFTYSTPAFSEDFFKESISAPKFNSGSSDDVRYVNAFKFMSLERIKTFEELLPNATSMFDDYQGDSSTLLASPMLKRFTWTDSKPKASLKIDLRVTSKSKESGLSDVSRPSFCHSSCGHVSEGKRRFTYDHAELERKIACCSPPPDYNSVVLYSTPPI
Chain of UniProt Q9NZJ5 (whole entry, looked up): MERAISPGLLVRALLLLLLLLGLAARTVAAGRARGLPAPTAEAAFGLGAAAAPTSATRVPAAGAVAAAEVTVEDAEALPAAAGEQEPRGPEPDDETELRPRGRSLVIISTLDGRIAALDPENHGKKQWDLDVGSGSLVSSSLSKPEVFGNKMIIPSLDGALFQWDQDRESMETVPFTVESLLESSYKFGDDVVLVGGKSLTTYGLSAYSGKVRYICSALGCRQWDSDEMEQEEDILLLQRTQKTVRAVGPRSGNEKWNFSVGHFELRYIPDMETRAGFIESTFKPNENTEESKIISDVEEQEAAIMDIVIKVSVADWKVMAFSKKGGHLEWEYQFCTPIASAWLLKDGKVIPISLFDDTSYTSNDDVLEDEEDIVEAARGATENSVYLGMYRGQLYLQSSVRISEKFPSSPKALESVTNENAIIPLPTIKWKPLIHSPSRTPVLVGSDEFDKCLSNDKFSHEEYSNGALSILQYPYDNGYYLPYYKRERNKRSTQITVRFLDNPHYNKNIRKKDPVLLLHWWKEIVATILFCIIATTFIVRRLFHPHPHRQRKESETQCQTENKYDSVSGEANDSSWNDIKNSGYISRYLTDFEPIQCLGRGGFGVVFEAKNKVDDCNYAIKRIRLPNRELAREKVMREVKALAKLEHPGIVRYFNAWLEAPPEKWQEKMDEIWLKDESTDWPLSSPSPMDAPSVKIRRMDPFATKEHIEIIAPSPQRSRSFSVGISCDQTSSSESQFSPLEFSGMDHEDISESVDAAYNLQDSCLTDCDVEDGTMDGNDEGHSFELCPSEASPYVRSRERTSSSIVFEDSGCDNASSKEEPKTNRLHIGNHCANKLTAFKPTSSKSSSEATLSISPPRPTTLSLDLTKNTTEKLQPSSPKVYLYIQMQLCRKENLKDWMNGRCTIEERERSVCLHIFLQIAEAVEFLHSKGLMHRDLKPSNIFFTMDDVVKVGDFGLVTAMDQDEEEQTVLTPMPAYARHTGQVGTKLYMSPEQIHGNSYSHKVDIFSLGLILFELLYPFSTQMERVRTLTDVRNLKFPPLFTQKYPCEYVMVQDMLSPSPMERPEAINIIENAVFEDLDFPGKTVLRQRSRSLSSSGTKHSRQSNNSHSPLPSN

For COc1cc(N2CCN(C)CC2)ccc1Nc1nc(N)n(C(=O)NCc2c(Cl)cccc2Cl)n1, the remaining activity was 0.65% (Mast/stem cell growth factor receptor Kit (KIT, Homo sapiens, UniProt P10721, L576P); enzyme activity; 10 µM; relative to: control).
CNCC(=O)O gave a remaining activity of 77.5% (Sodium- and chloride-dependent glycine transporter 2 (Homo sapiens, UniProt Q9Y345, S479G); glycine uptake, inhibitor, [3H]glycine uptake; 1000 µM, S479G mutant, log concentration 1, added: [3H]glycine; relative to: no inhibitor).
For C=CC(=O)N1CCC[C@@H](n2nc(-c3ccc(Oc4ccccc4)cc3)c3c(N)ncnc32)C1, the remaining activity was 68.6% (Vascular endothelial growth factor receptor 1 (FLT1, Homo sapiens, UniProt P17948); 0.1 µM).
Nc1nc(=O)c2c([nH]1)NCC(CNc1ccc(C(=O)N[C@@H](CCC(=O)O)C(=O)O)cc1)N2C=O (mixture of isomers): “z-scored log2 fold change” 0.111 (binding, equilibrium dialysis LC-MS; 5 µM, thermostabilized A2AR-BRIL construct; relative to: no-protein control, direction not given).
The remaining activity of O=C(O)c1ccc(Nc2ncc3c(n2)-c2ccc(Cl)cc2C(c2c(F)cccc2F)=NC3)cc1 is reported as 100% (SGK2(h); kinase activity; 1 µM).
For CNc1ncc2c(/C=C/C(=O)N3CCC(OC)CC3)nn(Cc3cccc(C(F)(F)F)c3)c2n1, the remaining activity was 86% (PAK3; kinase activity, inhibitor; 1 µM; relative to: untreated control).
The remaining activity of O=C(NC1CCC1)c1ccc2nc(-c3cccc(NS(=O)(=O)NCCN4CCCCC4)c3)cn2c1 is reported as 100% (PAK3; enzyme activity; 10 µM).
With Cc1cc(Nc2cc(N3CCN(C)CC3)nc(Sc3ccc(NC(=O)C4CC4)cc3)n2)[nH]n1 the remaining activity was 103% (Eukaryotic translation initiation factor 2-alpha kinase 3 (EIF2AK3, Homo sapiens, UniProt Q9NZJ5); kinase activity, KinaseProfiler; 0.03 µM, species human; relative to: control).
NC/C(=C\F)COc1cccc(Cn2c(=S)[nH]c(=O)c3[nH]cnc32)c1 has a remaining activity of 12.4% (Peroxidasin homolog (PXDN, Homo sapiens, UniProt Q92626); Amplex UltraRed; 40 µM, mean of replicates; relative to: control).
With COc1cc(F)ccc1-c1ncnc(Nc2cccc(C[S@](C)(=N)=O)c2)n1 the remaining activity was 104% (GRK6; kinase activity; 10 µM, added: 10 µM ATP).
Cc1ccc(NC(=O)c2ccc(C)c(C(F)(F)F)c2)cc1C#Cc1nn(C2CCC(O)CC2)c2ncnc(N)c12 (stereo not drawn) gave a remaining activity of 94% (Phosphatidylinositol 4,5-bisphosphate 3-kinase catalytic subunit alpha isoform, with p85 alpha (Pik3ca, Mus musculus, UniProt P42337, H1047R); enzyme activity, inhibitor; 10 µM, p110a(H1047R)/p85a)(m mouse, added: ATP 10 µM).
For COc1cc(Nc2ncc3c(n2)-c2ccc(Cl)cc2C(c2c(F)cccc2OC)=NC3)ccc1C(=O)O, the remaining activity was 57% (MAP4K2; kinase activity; 1 µM).
COc1cc(N2CCN(C)CC2)ccc1Nc1nc(N)n(C(=S)NCc2c(Cl)cccc2Cl)n1 has a remaining activity of 20% (Serine/threonine-protein kinase NLK (NLK, Homo sapiens, UniProt Q9UBE8); enzyme activity; 10 µM; relative to: control).
COc1ccc(F)cc1C(=O)NCc1ccc(-c2nn([C@@H](C)C(F)(F)F)c(N)c2C(N)=O)cc1 gave a remaining activity of 101 ± 1.8% (GRK6; kinase activity, inhibitor, HotSpot radiometric; 1000 nM, added: ATP at Km).
For COc1cc(-c2cncc3c2CN(C)Cc2cc(N4CCNCC4)ccc2-3)cc(OC)c1OC, the remaining activity was 107% (Mast/stem cell growth factor receptor Kit (KIT, Homo sapiens, UniProt P10721); kinase activity; 1 µM, human enzyme, added: ATP 10 µM; relative to: DMSO control).
